Published values pooled from the literature.
A part holds a random share of what one study measured.

Series 1 — method: RNA Bind-n-Seq; form: RNA; sample: in vitro; concentration: 365 nM; relative to: no-protein control; reading: higher = stronger binding; measurement: RBNS enrichment (R)
Target: RNA binding protein fox-1 homolog 2, RRM domain, GST-SBP tag (RBFOX2, Homo sapiens, UniProt O43251-10, residues 100-194)
Setting: natural RNA segment, single round, ends assumed
All sequences stand within: GGGAGUUCUACAGUCCGACGAUC … UGGAAUUCUCGGGUGCCAA
Target sequence (chain): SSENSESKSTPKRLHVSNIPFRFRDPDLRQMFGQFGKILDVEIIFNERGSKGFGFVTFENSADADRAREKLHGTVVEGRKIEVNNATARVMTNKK
Oligonucleotide = AGGCUUCAGUCAGCCCCUCACUGUGGUCCAAGAAUGCCACACACCUUUCCGUAGAUAUGCCGAUGGUAAUUAUCUUUUCUUUUGGCUUAAUCCGAUUUGGUUUGGUUUUU; result = 0.266
Oligonucleotide = UAUAGGAACAGCCCAGCACAGGUAUUUCAGGUGUGAAAGAAUCAGUAGGACCAGGCCACCGCUAGUGCUUGUGGAGAUCACAGCCCCACCCUUGUCCCUCAGCAACAUCC; result = 0.36
Oligonucleotide = CCUGGUGACCUUUGCUCUCGGCACCGGGCCUGUUUCCUUUGCUUUGAGUGCCUUUUUGAACGCUGCUCCACAGGGCCUGGGUUUUCUUGAGCUCUUCUGUCCAAAGAUGG; result = 0.813
Oligonucleotide = AGAACUGCCUUGGUGGACACCAGCCUCGCCCUGUCUUUAUUUCCUGAAUGGUUUGUGAACUUGCUCACCUGGACCACUGUAUCCUGCCACUGUCCUUCCUGGUCUCGCAC; result = 0.645
Oligonucleotide = ACCGAUGUAUGAUGUGAAAAGGAAACAGAUGAUGAUGUGUAUAAUAAAAUUGUUACCAUUCACUCAGACUUUAUUAGUUAGGCCAUGUGUGUAUUCACCAUGGAUUAGUU; result = 0.794
Oligonucleotide = AUUGCUUGGUUUUGAUUAAAGUCUGAGCCUGAUACUGAUAUGAUUUUAAAGCGUAGCUGAACCGACUGAAACUAUUAUGGAGAUUACAAUAAAUAAUUGCAUUCAAUCUG; result = 0.317
Oligonucleotide = GGUUCAAUUUCAAGUCUGCUGUGGCUAAUAGUGGUCAAGAUUCCGAACUAGGACUUUCCUCUGUGAAGAGGAUGCCUCUGAAGAAAUUUUAAACUGGUGAUUUUGGUUGC; result = 0.322
Oligonucleotide = UCUGUUUUUGUAGACGAAUAACCAUCAACAUGACAACAAAAUUCAUUGGGGUCUACCAGCGUGCAUUCCAUUUCCCACUGACCAUGCAGGUGCACGUCGCGGAAAUACUG; result = 1.17
Oligonucleotide = AGAUGCUCAUAGAAGAGGAAGAAUGGGACAUGGCCCCAUGCUUAUUUUUGUUUACAACGUAACAUGGCAUGAGAGAGGGCAGAGAAACUAAGUUGCUGGGGAAAGUUAGA; result = 1.78
Oligonucleotide = AGUGGCAUCUAUCAGUAAUUGCUUUCCUUUUUAUUGCUGGGCUGAAUGCUGUUCCAUUGUAUGGCUGUGUCAGAUUUUGUUUGUUCAUUCACCAGUUGAUAGACAUGUAG; result = 0.334
Oligonucleotide = CAGCGCCGCCGAGCUGACCCCACUCUGGAGCCUGGCCGAGCUGGCAGCAUGGAGCCCUCGGCUCCCCAGACUUUGCCGAGGGGCUGCUCCGGACCCCGUUGUGAGCCGGC; result = 5.82
Oligonucleotide = UUUUUCCAAGGAGUGAAUGUGGUUUAAUUACUGGACUCUCUUAGCACAGGAAGGUGGAAACAAAAUGCCAGGCCUCUGCUCUGAAGAGCAAAACUGCUGUCGCUGCAGUA; result = 0.307

Series 2 — method: protein-binding microarray; form: double-stranded DNA, one strand shown; sample: in vitro; concentration: 2540 nM top; setting: 60-bp whole probe; with: salmon DNA 0.4 mg/ml; relative to: random background probes; reading: higher = stronger binding; measurement: fitted relative affinity; all sequences stand within: GCCTAGCAC … GTCTTGATTCGCTTGACGCTGCTG
Target: Interferon regulatory factor 3, full length, phosphomimetic (IRF3, Homo sapiens, UniProt Q14653, residues 1-427, S386D/S396D/S398D/S402D/T404D/S405D)
UniProt Q14653, sequence (whole entry, unmodified, looked up): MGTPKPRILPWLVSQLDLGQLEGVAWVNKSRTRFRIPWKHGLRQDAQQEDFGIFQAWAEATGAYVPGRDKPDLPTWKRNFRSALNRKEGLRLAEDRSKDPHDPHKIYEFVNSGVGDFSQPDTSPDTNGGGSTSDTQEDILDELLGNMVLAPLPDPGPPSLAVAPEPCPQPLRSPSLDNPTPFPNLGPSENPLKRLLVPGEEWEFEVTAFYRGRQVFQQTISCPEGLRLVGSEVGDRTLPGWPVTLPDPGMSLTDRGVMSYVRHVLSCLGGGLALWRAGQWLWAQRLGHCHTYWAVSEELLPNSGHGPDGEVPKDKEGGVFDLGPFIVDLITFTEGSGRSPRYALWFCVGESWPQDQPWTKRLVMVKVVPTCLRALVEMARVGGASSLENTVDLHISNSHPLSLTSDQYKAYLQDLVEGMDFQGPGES
Oligonucleotide = GACGGCTTCCTTTTCCTGACGTGCTAG; result = 2.09 z-score
Oligonucleotide = GACGGTTTCGTTTCCGGGACGTGCTAG; result = 8.52 z-score
Oligonucleotide = GACGGTTTCCTGATCCTGACGTGCTAG; result = 4.23 z-score
Oligonucleotide = GAAGACTTTGGTTTGTACACGTGCTAG; result = -0.552 z-score
Oligonucleotide = TGAACTTCGGCCTCTAGGTTTGTGCTA; result = -0.678 z-score
Oligonucleotide = TCAATTTCCACTTTCTTACTGTGCTAG; result = 3.31 z-score
Oligonucleotide = TTAGGAGTGGGTTTCGGTTAGTGCTAG; result = 3.33 z-score
Oligonucleotide = GACGGTTTCCCTTCCCTGACGTGCTAG; result = 8.5 z-score
Oligonucleotide = TTAGGACTGGACTTTCCGTTAGTGCTA; result = 0.588 z-score
Oligonucleotide = ACTCCTATCCAAGTTCCCCTGGTGCTA; result = 1.2 z-score
Oligonucleotide = GACGGTTTCTACTTTCGGGACGTGCTA; result = 3.2 z-score
Oligonucleotide = GTCGGACTGGACTTTCGGGACGTGCTA; result = 0.357 z-score
Oligonucleotide = TCAGCTGTGGGTTTGAGACTGTGCTAG; result = -1.03 z-score
Oligonucleotide = CCCTAATTCTGATTGGATAAGTGCTAG; result = 1.22 z-score
Oligonucleotide = TCACATTTTCGTTTTTAACTGTGCTAG; result = 4.86 z-score
Oligonucleotide = TTCCCTTTTAAGTTCTCTGAGTGCTAG; result = 5.49 z-score
Oligonucleotide = GACGAGCTGAGTCTCGAGACGTGCTAG; result = -0.381 z-score
Oligonucleotide = GATGGTTTCCTTTCCCTGACGTGCTAG; result = 10.4 z-score
Oligonucleotide = TCACCTCTGCTGCTGGCACTGTGCTAG; result = -0.232 z-score

Series 3 — method: competition protein-binding microarray; form: double-stranded DNA, one strand shown; sample: in vitro; concentration: 2 µM; with: Pho4 competitor, 0.05 µM; reading: higher = stronger binding; measurement: fluorescence intensity; all sequences stand within: … GTCTTGATTCGCTTGACGCTGCTG
Target: Centromere-binding protein 1, full length, His-tagged (CBF1, Saccharomyces cerevisiae, UniProt P17106, residues 1-351)
UniProt P17106, sequence (whole entry, looked up): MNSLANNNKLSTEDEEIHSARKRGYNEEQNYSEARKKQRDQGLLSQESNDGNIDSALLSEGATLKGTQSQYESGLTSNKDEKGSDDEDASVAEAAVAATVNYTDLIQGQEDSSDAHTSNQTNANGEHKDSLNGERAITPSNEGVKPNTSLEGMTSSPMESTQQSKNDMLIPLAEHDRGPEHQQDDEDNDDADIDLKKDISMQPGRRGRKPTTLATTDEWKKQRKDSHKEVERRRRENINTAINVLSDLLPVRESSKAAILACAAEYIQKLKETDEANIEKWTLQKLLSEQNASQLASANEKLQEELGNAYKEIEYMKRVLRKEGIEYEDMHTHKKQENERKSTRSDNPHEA
Setting: whole 60-bp probe, lowest competitor level
Oligonucleotide = CATCAGCCTTCCATGCCCGTGCAATTACGGCTCCTC; result = 77 a.u.
Oligonucleotide = GTCTTGTCTCATTGCGCAGTGGGTGTCCCCACTTCA; result = 72.2 a.u.
Oligonucleotide = CGGGGTTAAGTTTGTCACTTAACTTGCTTGCAGCAG; result = 77.1 a.u.
Oligonucleotide = GACAGGAACTGCTGTCATATGAAAACCTAAAAATGT; result = 92.5 a.u.
Oligonucleotide = AAGATCCGGATCAAGACCGTGATGGCCAGCGCGATA; result = 56.5 a.u.
Oligonucleotide = TTCCGCAGGTTTATCAACGTGTTTCACTTATATCGG; result = 96.7 a.u.
Oligonucleotide = GTTGTTGGGATCCGTCACGTGTAGGCAAAACGCGTT; result = 4000 a.u.
Oligonucleotide = AAATTACTAAGTTGCACAGTGGGTGACGCCGTATGA; result = 70 a.u.
Oligonucleotide = AAATTACTAAGTTGTCCAGTGGGTGACGCCGTATGA; result = 54.7 a.u.
Oligonucleotide = GCTTGGACCATAAAATACGTGACGGAGGACACCATA; result = 114 a.u.
Oligonucleotide = AAAGCGGTAATTTGACGTGTGGGTGCAGATATCTAT; result = 95.8 a.u.
Oligonucleotide = TAACAGTATATCCGACACGCACGGCAAGACCACTTA; result = 57.8 a.u.
Oligonucleotide = TTGAGCATAATCCATCACGTGATGGACACCCATACC; result = 11100 a.u.
Oligonucleotide = GCTTTCCCAGCGATGCTCGTGTGGAGGACCGAACAT; result = 62.7 a.u.
Oligonucleotide = GAGGCACTGATCCATCACGTGGAGGAGAACAATTTA; result = 1500 a.u.
Oligonucleotide = CAGAATTGTCCGAATCGTGTGACGGAAACAGCCTGT; result = 88.8 a.u.
Oligonucleotide = AGAGGGTAGCTTGCTGACATGCAGACCTCTCCCCGG; result = 58.1 a.u.
Oligonucleotide = AAGAGTATTATACAGCACGCAGCAGAACAGTTATAC; result = 76.2 a.u.
Oligonucleotide = GCTGACGCTATCCGTCACGTGGTGATGGCAGCTGCT; result = 4000 a.u.
Oligonucleotide = CTAACGAAGGTTTGAAGCGTGGGTGACAAGCCAAGT; result = 63.4 a.u.
Oligonucleotide = CCTTAATAGGCGAGTCACGTGGAATGGTAGAACCGA; result = 5300 a.u.
Oligonucleotide = TACGAAAAACAGAGAAACGTGTCGGTAGCATCCGAT; result = 98.6 a.u.

Series 4 — method: RNA Bind-n-Seq; form: RNA; sample: in vitro; concentration: 1 µM; setting: whole 134-nt RNA, ends assumed; with: 150 mM KCl; relative to: input library; reading: higher = stronger binding; measurement: log2 enrichment
Target: Ras GTPase-activating protein-binding protein 1, RRM domain (G3BP1, Homo sapiens, UniProt Q13283)
UniProt Q13283, sequence (whole entry, looked up): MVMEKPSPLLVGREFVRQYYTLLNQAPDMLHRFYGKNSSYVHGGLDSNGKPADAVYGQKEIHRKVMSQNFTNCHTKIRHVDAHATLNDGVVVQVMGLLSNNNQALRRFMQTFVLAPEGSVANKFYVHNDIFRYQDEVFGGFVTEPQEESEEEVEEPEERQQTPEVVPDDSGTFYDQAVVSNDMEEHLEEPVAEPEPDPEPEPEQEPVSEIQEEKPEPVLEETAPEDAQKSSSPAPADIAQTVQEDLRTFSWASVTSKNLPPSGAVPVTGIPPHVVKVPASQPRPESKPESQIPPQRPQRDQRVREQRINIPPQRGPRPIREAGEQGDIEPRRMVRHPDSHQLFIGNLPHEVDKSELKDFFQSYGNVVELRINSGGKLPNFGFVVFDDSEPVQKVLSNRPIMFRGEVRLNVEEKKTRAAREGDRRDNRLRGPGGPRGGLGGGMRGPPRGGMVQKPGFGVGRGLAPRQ
All sequences stand within: GGGAGUUCUACAGUCCGACGAUC … UGGAAUUCUCGGGUGUCAAGG
Oligonucleotide = UCCUCAAGUCCUGUGCUACACAUCGUAUGUACCGAAUCGGGGUGGUGGGUGGAAAGUAUUAUGUUACGCCGUUCGGAUCUGCACUUCCAG; result = -0.136
Oligonucleotide = CUCAAGUCCUGUGCUACACAUCGUAUGUACCGAAUCGGUUUGGAAAAAGGUGGAAAGUAUUAUGUUACGCCGUUCGGAUCUGCACUUCCA; result = -0.161
Oligonucleotide = CAAGUCCUGUGCUACACAUCGUAUGUACCGAAUCGGGGAAAGGAAAGGGGAAAGGGAAAGUAUUAUGUUACGCCGUUCGGAUCUGCACUU; result = 0.0867
Oligonucleotide = CUCAAGUCCUGUGCUACACAUCGUAUGUACCGAAUCGGUUUUUUUGGUGGAGGAAAGUAUUAUGUUACGCCGUUCGGAUCUGCACUUCCA; result = -0.27
Oligonucleotide = ACCAUGCAGGUGGGCAUCUUUGGGAAGUGGGGCCAGGGGGGGAUAGGGAGGGGGGUAACACUUUGGGAACAGGUGGUCCCAGGUCGUUUC; result = -0.408
Oligonucleotide = UAACUUUAGAGGAGGAUCUGAUGGAUAUGGCAGUGGACGUGGAUUUGGGGAUGGCUAUAAUGGGUAUGGAGGAGGACCUGGUGGUGGCAA; result = -0.488
Oligonucleotide = CACAGACAACACGCACCCACACAGACACAGAGGGAAGGGGUUGGGAUGGGGACAGGGUGCACAGCAGGGCGGAAAAGGACCCCAGCCCCU; result = -0.176
Oligonucleotide = GUCCUGUGCUACACAUCGUAUGUACCGAAUCGGCCCCCGGGGCCCCCGGGCCCCCGGGAAAGUAUUAUGUUACGCCGUUCGGAUCUGCAC; result = -0.428
Oligonucleotide = UCCUGUGCUACACAUCGUAUGUACCGAAUCGGGGUUUUUGGGGAAAAAGGGGAAAGGGGAAAGUAUUAUGUUACGCCGUUCGGAUCUGCA; result = 1.2
Oligonucleotide = CCUGUGCUACACAUCGUAUGUACCGAAUCGGGGCCCCCCGGGCCCCCCGGGGCCCCCCGGAAAGUAUUAUGUUACGCCGUUCGGAUCUGC; result = -0.766
Oligonucleotide = UUAGAAGAAGAAGAUGGAGUGUGGGAGAAUGGACUUUCCUAUGAAUGCCGUACUCUGCUUUUCAAAGCAGUUCACAAUCUAUUGGAACGG; result = -0.254
Oligonucleotide = GUCCUGUGCUACACAUCGUAUGUACCGAAUCGGUUUUUGGUUUUUUUGGUUUUUUUGGAAAGUAUUAUGUUACGCCGUUCGGAUCUGCAC; result = -0.203
Oligonucleotide = UCAAGUCCUGUGCUACACAUCGUAUGUACCGAAUCGGGGAAGGGAAGGGAAGGGGAAAGUAUUAUGUUACGCCGUUCGGAUCUGCACUUC; result = 0.915
Oligonucleotide = ACCAUGCAGGUGGGCAUCUUUGGGAAGUGGGGCAAGGGGGGGAUAGGGAGGGGGGUAACACUUUGGGAACAGGUGGUCCCAGGAAAUUUC; result = -0.342

For quick reference, copied from above (series 1):
Oligonucleotide = AGUGGCAUCUAUCAGUAAUUGCUUUCCUUUUUAUUGCUGGGCUGAAUGCUGUUCCAUUGUAUGGCUGUGUCAGAUUUUGUUUGUUCAUUCACCAGUUGAUAGACAUGUAG; result = 0.334
Oligonucleotide = UCUGUUUUUGUAGACGAAUAACCAUCAACAUGACAACAAAAUUCAUUGGGGUCUACCAGCGUGCAUUCCAUUUCCCACUGACCAUGCAGGUGCACGUCGCGGAAAUACUG; result = 1.17
Oligonucleotide = AGGCUUCAGUCAGCCCCUCACUGUGGUCCAAGAAUGCCACACACCUUUCCGUAGAUAUGCCGAUGGUAAUUAUCUUUUCUUUUGGCUUAAUCCGAUUUGGUUUGGUUUUU; result = 0.266
Oligonucleotide = CCUGGUGACCUUUGCUCUCGGCACCGGGCCUGUUUCCUUUGCUUUGAGUGCCUUUUUGAACGCUGCUCCACAGGGCCUGGGUUUUCUUGAGCUCUUCUGUCCAAAGAUGG; result = 0.813
Oligonucleotide = CAGCGCCGCCGAGCUGACCCCACUCUGGAGCCUGGCCGAGCUGGCAGCAUGGAGCCCUCGGCUCCCCAGACUUUGCCGAGGGGCUGCUCCGGACCCCGUUGUGAGCCGGC; result = 5.82
Oligonucleotide = AGAACUGCCUUGGUGGACACCAGCCUCGCCCUGUCUUUAUUUCCUGAAUGGUUUGUGAACUUGCUCACCUGGACCACUGUAUCCUGCCACUGUCCUUCCUGGUCUCGCAC; result = 0.645
Oligonucleotide = ACCGAUGUAUGAUGUGAAAAGGAAACAGAUGAUGAUGUGUAUAAUAAAAUUGUUACCAUUCACUCAGACUUUAUUAGUUAGGCCAUGUGUGUAUUCACCAUGGAUUAGUU; result = 0.794
